# Published values of several laboratories.
# Parts stem from different laboratories: compare values within a part only.

# Sample 1
# Target: Prothrombin, mature alpha-thrombin (F2, Homo sapiens, UniProt P00734)
# Technique: aptamer microarray, sandwich
# Molecule type: DNA with 2'F-ANA
# Sample: in vitro
# Tested at: 200 nM
# Setting: whole 15-mer aptamer, many near background
# Together with: Cy3 exosite-II aptamer, 400 nM
# Reading: higher = stronger binding
# Strand: GGTTGGTGTGGTTGG
Modification,mean fluorescence intensity
2'F-ANA at 5 6 7 8 9 12 14 15,107 a.u.
2'F-ANA at 3 4 7 11 12,1010 a.u.
2'F-ANA at 1 3 4 6 8 9 12 13 14 15,73.5 a.u.
2'F-ANA at 1 4 5 6 7 9 10 11 12 14 15,49.1 a.u.
2'F-ANA at 1 3 5 6 8 10 11 12 15,71.9 a.u.
2'F-ANA at 2 3 4 6 9 10 12 14 15,153 a.u.
2'F-ANA at 1 2 3 5 6 7 11 12 14 15,58.8 a.u.
2'F-ANA at 2 4 7 8 10 12 14,68.3 a.u.
2'F-ANA at 2 3 6 7 8 12,1140 a.u.
2'F-ANA at 2 3 4 6 7 10 11 12 14 15,154 a.u.
2'F-ANA at 2 3 4 5 7 12 13,108 a.u.
2'F-ANA at 4 8 10 13 14 15,90.3 a.u.
2'F-ANA at 2 4 5 7 8 9 11 12 14 15,59.6 a.u.
2'F-ANA at 1 3 4 5 6 7 10 11 13 14,51.5 a.u.
2'F-ANA at 1 3 4 6 7 9,182 a.u.
2'F-ANA at 3 4 5 6 7 8 9 10 13 14 15,49.5 a.u.
2'F-ANA at 1 3 4 5 10 12 13 14 15,65.1 a.u.
2'F-ANA at 12 14 15,290 a.u.
2'F-ANA at 2 4 5 7 9 10 12 13 14 15,64.1 a.u.
2'F-ANA at 1 4 5 6 8 11,51.2 a.u.
2'F-ANA at 4 6 9 11 13 14,73.3 a.u.

# Sample 2
# Target: Sal-like protein 4, full length isoform B (SALL4, Homo sapiens, UniProt Q9UJQ4-2, residues 1-616)
# Technique: universal PBM
# Molecule type: double-stranded DNA, one strand shown
# Sample: in vitro
# Tested at: not given
# Setting: 8-mer, flanks averaged, mean of replicates
# Reading: higher = stronger binding
# Target sequence (chain): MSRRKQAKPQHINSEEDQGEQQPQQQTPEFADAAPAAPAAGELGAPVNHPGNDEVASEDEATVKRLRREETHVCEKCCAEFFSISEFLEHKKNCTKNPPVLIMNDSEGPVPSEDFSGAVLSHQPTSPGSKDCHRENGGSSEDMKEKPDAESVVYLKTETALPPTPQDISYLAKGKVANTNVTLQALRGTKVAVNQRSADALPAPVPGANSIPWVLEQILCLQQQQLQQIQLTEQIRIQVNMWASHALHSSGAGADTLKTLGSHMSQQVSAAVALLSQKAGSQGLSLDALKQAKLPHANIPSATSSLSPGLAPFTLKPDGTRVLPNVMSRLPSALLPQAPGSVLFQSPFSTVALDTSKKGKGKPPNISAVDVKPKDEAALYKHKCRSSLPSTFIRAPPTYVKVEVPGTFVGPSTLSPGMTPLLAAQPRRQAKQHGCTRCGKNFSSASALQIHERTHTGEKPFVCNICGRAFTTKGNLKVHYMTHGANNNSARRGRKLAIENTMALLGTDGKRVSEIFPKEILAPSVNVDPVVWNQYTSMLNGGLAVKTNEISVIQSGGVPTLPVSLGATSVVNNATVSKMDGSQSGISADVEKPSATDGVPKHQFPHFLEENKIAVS
Strand,E-score
AGCAAGCT,-0.168
ACGTCTAT,0.0761
GTTGATAA,0.261
AAGAACAC,0.00299
AACTCTGT,-0.00851
CATGGTGA,0.0279
ACATCAGA,0.14
CGTACAAC,0.033
ACACCCGG,-0.317
ACTTCTTA,0.167
GGTCGACC,-0.211
CATCTTAA,0.127
ATGGTTGG,-0.0326
TCGCGGAA,-0.112
GCACGCCC,-0.339
AGCCGCGG,-0.325
GCGCGATA,-0.00297
ACGATTGA,0.0579
AAGTACTC,0.0381
AAGTTCCA,-0.009
GTATTCAA,0.269
CGCTCCAG,-0.0932

# Sample 3
# Target: TAR DNA-binding protein 43, full length, His tag (TARDBP, Homo sapiens, UniProt Q13148, residues 1-414)
# Technique: RNA Bind-n-Seq
# Molecule type: RNA
# Sample: in vitro
# Tested at: 20 nM
# Setting: 6-mer, flanks averaged, single round
# Together with: 150 mM KCl
# Relative to: input library
# Reading: higher = stronger binding
Strand,6-mer enrichment (R)
AGUCCG,0.799
UGGUGG,3.23
UUUAUG,0.709
CAGAAA,0.681
CAGAGU,0.869
AGAAAU,0.656
UAUCUA,0.54
GAUGAA,0.968
CCGAGC,0.845
CCCGUA,0.631
ACAAAU,0.667
CUAUAC,0.565
GCAUUC,0.615
GAAGCC,0.835
AAGCGG,1.71
CUAACA,0.638
GAUAAU,0.687
AGAUGU,0.815
GGUCGU,1.29
UGUCUG,0.852
GGACCC,0.938
AGCGUU,0.7

# Sample 4
# Target: Interferon regulatory factor 7, full length, phosphomimetic (IRF7, Homo sapiens, UniProt Q92985, residues 1-503, S471D/S472D/S475D/S476D/S477D/S483D/S484D/S487D)
# UniProt Q92985, sequence (whole entry, unmodified, looked up): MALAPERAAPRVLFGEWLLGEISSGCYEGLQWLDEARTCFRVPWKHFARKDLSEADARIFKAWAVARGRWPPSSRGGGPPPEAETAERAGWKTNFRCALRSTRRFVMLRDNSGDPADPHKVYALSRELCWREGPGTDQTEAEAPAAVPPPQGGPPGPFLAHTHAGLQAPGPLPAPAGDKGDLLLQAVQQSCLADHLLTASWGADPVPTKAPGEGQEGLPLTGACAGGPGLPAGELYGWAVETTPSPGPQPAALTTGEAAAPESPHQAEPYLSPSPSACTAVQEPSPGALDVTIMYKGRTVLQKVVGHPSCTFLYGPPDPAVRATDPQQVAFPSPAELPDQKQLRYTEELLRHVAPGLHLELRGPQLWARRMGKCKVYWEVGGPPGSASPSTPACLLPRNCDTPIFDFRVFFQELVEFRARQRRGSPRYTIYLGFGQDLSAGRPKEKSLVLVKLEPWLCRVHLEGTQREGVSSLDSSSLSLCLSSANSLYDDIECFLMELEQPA
# Technique: protein-binding microarray
# Molecule type: double-stranded DNA, one strand shown
# Sample: in vitro
# Tested at: 2200 nM top
# Setting: 60-bp whole probe
# Together with: salmon DNA 0.4 mg/ml
# Relative to: random background probes
# Reading: higher = stronger binding
# Constant ends, left off below: GCCTAGCAC … GTCTTGATTCGCTTGACGCTGCTG
Strand,fitted relative affinity [z-score]
TTAGGTATCCTTTTCCCTTAGTGCTAG,1.83
GACGGTATCCTTGTCCTGACGTGCTAG,0.871
TTAGGTTTCCGTTCCGGTTAGTGCTAG,4.43
GACGATATCAGGACTGGAGACGTGCTA,-0.184
CTGGAATCAATTTATTGACCGTGCTAG,0.0552
GTCTCTATCAAAAATACAAAAGTGCTA,-0.223
TTAGGTATCGGTATCCGTTAGTGCTAG,1.22
GAAGATATCGGGTATCGAGACGTGCTA,-0.018
GACGGTATCGATCTCGGGACGTGCTAG,0.37
TTAAGTCTCCTACTGCTTTAGTGCTAG,0.744
TTAGGTATCGGTTTAGGTTAGTGCTAG,2.31
GACGGACTGCTACTTCTGACGTGCTAG,0.293
TAAGGTCTCGGTCTCGGTTAGTGCTAG,0.62
TTAGAACTGAGACTGGTTTAGTGCTAG,-0.448
GACGGACTGGGGATCGGGACGTGCTAG,-0.919
GTAGGTCTCCTACTGCTTTAGTGCTAG,0.23
TTAGATATCGGGTTACGATTAGTGCTA,0.374
TCAATGATCTTCCTTCATACTGTGCTA,0.933
GACGGACTGGGGGTTCGGGACGTGCTA,0.0492

# Sample 5
# Target: Histone acetyltransferase KAT6A, winged helix 2, GST fusion (KAT6A, Homo sapiens, UniProt Q92794, residues 85-181)
# Technique: protein binding microarray
# Molecule type: double-stranded DNA, one strand shown
# Sample: in vitro
# Tested at: not given
# Setting: 8-mer, flanks averaged, mean of 2 arrays, mostly near background
# Relative to: not given
# Reading: higher = stronger binding
# Construct (chain): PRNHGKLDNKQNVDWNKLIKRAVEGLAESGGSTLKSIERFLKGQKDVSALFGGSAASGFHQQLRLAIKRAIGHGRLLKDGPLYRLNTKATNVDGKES
Strand,E-score
ACGCGTAT,-0.0258
CACTAGAA,-0.072
AATGTGAG,-0.0872
CACTCCCC,0.0104
GTGGCGTA,0.0404
GGGTGCAC,0.025
AGCAGTCG,-0.000725
ATCTATCA,0.0842
GGCCTATA,-0.272
ATCTCGTC,-0.00292
GCATTTCA,0.0325
CTCGAGTC,-0.0649
CCGTGCCA,-0.0656
GATCTGGC,0.166
CCTGCAGC,0.0437
TCGTAAAA,-0.0927
CTGAGACA,0.00137
ACCCGACC,0.0759
GCCATGCA,0.0109
ACTTTAAC,-0.039
GGAAACCA,-0.114
GGGAATAA,0.0351
AACTGAAG,0.0295
CTCGGTAC,-0.173
CGCTATAC,-0.0668

# Sample 6
# Target: RNA binding protein fox-1 homolog 2, RRM domain, GST-SBP tag (RBFOX2, Homo sapiens, UniProt O43251-10, residues 100-194)
# Technique: RNA Bind-n-Seq
# Molecule type: RNA
# Sample: in vitro
# Tested at: 365 nM
# Setting: natural RNA segment, single round, ends assumed
# Relative to: no-protein control
# Reading: higher = stronger binding
# Constant ends, left off below: GGGAGUUCUACAGUCCGACGAUC … UGGAAUUCUCGGGUGCCAA
# Construct (chain): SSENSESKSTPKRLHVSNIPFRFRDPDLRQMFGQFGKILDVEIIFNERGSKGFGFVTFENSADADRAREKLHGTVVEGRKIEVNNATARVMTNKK
Strand,RBNS enrichment (R)
CAAUGCAUUGGUGCAUAGGAGUUACUAGGGCUACUUCUGGAAGCCAAAAUAGAAUAGCAUCUCCAUGUGCAUUAAAAACUUCGCCAGCACUGCCUUUUGCCAGCAUUCUA,0.475
GGAAAGAGUUCACAUCUUAGGUUUGAAAGGGAGCAUUUGAGUCUUCUCACUGACCUCUUCCUAGCAGCUUAGAUAGCCUCAGACAUGACUGCCAGGAUUCCUGAUAUGCC,0.565
CAGCCCAAACUUUUAAGAUGACCCAAAGUCGUGAGAAUAGGAAAAAGGAAUCUGAUUAACAUUUAUGCAUUUUAUUUUCAGAAGGACUUUCAGUUAUCCAUAAAUCUAAG,0.87
GAUGAUUGUAAAAUUUGCUCCUCAAAGGAAUCAGGCCAGACUCAAUUUUGGAGGGCAAGACAGGGAGGAGGCCGCUUCAUCCCAGACUCUCUUCUAGGGCUUCCCACCAU,0.414
CCAGGGCUCCCUUGGCCCCUUCACGUAGGAAAUAGACACGUGCUUUUUAAUGCAGGACACUUUGAGUGUUACAAAAUCUGUAGACCUGGCAGUAGGGUCAUGAUGUUGGG,0.384
CCUGGCUUCGAGUUGGAACCCGGACACUUGCCCCUCACUGGUGUGGAUGGAAAUCUGCCUUUCGUGGGACCAAACAGGACUCCUUGGACGAUUAGUUCAGGUUGGGUUUG,0.409
GUAUAAUUUUGAGGUAUAGCUUGAACUCCUAGAACAAGAGUUAAAAGUUCUUUUUAGCUCAUUCACAAUCACUUGUGUGUUAAGUGUUAAUAUCUGUCAUGAACCUGCCA,1.44
CCAAGGUCACGAGAAGCAGCCAGAGUGCCCCGCCUCCGCCGGCUCUGGUCUGCCAUUCGCCAGUGCAGGGAUCUGGCACGGACCAGAUGUGGCGAAUGGCAGCACAGCGC,1.02
UCCCAACAUGUGAUGACUAUUCUUGGUUGUCAUCUUGAAUACUACUAGGUGAUUAGGCCUAUUGGUAGAUAGCCAUUGUUGAACUACCUGGACCACAAUUUGUAAGCCAU,0.582
UCGUGUGUCUCUACCACAGCUGACUCUCAGCUGGCUAAUGGAGAAAAUGUGAGGAAUUACCUGUCAAAUUAGAUUGAGCUCAGAGUAAAUAGAUGAGCACAUUUAUAACU,0.224
UCAAAGUUUAAGUUAAUGUUAUAUAUUAUGUAUAAAUAUAUAUAUUCAUAAUGAGAUAUAUGUAAUGGAUAGUACAAAGUUUGGAGACUCAACAAAUGCUCUAACCUUCU,0.697
GUAAUUUUAAGGGGCCAAAGCUUUCCCUGAAGCAACCAAAGAUAUAUCCAAGUGCUUCCUCCAAGUCAACAUGUAUUUCCUCUCCCCAUUUUCAGGCCCUGUGGGGCUCC,0.729

# For quick reference, copied from above (sample 1):
Modification,mean fluorescence intensity
2'F-ANA at 1 4 5 6 7 9 10 11 12 14 15,49.1 a.u.
2'F-ANA at 1 3 5 6 8 10 11 12 15,71.9 a.u.
2'F-ANA at 2 3 4 6 9 10 12 14 15,153 a.u.
2'F-ANA at 1 2 3 5 6 7 11 12 14 15,58.8 a.u.
2'F-ANA at 2 4 7 8 10 12 14,68.3 a.u.
2'F-ANA at 2 3 6 7 8 12,1140 a.u.
2'F-ANA at 2 3 4 6 7 10 11 12 14 15,154 a.u.
2'F-ANA at 2 3 4 5 7 12 13,108 a.u.
2'F-ANA at 4 8 10 13 14 15,90.3 a.u.
2'F-ANA at 2 4 5 7 8 9 11 12 14 15,59.6 a.u.
